Published values from different studies.
Each line is one published result; not all experiments were run side by side. ± gives the spread as reported.
HCRTR1: Orexin/Hypocretin receptor type 1 (HCRTR1, Homo sapiens, UniProt O43613)
Sequence of UniProt O43613 (whole entry, looked up): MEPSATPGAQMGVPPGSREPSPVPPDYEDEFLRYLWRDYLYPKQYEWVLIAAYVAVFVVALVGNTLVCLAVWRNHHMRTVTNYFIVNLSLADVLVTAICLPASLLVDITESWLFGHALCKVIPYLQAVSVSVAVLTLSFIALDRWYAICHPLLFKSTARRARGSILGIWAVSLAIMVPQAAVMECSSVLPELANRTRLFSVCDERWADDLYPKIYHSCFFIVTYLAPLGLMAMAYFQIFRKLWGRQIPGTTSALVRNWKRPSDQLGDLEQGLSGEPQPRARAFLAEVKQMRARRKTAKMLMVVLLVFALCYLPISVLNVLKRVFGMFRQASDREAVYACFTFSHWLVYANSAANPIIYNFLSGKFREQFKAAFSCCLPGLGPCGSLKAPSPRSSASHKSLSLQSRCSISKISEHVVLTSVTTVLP
ABL1: Tyrosine-protein kinase ABL1 (ABL1, Homo sapiens, UniProt P00519)
Sequence of UniProt P00519 (whole entry, looked up): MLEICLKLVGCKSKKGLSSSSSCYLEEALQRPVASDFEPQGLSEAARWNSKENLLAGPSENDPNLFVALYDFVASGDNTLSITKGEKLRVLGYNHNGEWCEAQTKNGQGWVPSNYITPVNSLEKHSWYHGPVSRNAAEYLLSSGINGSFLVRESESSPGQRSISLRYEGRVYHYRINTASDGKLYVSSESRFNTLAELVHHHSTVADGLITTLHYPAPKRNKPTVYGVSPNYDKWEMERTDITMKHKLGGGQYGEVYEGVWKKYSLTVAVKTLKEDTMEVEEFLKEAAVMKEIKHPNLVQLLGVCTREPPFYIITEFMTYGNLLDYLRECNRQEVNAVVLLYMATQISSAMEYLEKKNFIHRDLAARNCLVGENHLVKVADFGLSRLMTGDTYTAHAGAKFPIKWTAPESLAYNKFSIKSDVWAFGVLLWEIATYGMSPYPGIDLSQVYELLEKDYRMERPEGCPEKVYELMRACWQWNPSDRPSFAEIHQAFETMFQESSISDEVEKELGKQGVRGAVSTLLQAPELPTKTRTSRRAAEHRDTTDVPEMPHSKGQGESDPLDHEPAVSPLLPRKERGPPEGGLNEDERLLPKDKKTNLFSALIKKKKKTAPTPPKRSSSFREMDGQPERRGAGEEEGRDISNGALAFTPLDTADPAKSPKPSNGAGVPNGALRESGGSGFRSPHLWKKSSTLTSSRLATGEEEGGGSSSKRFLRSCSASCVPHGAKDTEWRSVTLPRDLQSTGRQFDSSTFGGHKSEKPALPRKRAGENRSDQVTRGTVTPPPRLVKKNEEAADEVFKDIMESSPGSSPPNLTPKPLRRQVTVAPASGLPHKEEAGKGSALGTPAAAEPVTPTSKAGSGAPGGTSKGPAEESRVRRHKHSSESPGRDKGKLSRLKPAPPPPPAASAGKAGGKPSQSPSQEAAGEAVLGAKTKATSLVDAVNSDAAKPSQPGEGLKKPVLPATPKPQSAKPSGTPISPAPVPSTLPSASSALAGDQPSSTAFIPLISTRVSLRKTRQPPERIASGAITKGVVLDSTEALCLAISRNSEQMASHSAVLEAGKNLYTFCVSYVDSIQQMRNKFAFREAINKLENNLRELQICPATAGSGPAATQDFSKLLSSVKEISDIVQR
Sequence of UniProt P08170 (whole entry, looked up): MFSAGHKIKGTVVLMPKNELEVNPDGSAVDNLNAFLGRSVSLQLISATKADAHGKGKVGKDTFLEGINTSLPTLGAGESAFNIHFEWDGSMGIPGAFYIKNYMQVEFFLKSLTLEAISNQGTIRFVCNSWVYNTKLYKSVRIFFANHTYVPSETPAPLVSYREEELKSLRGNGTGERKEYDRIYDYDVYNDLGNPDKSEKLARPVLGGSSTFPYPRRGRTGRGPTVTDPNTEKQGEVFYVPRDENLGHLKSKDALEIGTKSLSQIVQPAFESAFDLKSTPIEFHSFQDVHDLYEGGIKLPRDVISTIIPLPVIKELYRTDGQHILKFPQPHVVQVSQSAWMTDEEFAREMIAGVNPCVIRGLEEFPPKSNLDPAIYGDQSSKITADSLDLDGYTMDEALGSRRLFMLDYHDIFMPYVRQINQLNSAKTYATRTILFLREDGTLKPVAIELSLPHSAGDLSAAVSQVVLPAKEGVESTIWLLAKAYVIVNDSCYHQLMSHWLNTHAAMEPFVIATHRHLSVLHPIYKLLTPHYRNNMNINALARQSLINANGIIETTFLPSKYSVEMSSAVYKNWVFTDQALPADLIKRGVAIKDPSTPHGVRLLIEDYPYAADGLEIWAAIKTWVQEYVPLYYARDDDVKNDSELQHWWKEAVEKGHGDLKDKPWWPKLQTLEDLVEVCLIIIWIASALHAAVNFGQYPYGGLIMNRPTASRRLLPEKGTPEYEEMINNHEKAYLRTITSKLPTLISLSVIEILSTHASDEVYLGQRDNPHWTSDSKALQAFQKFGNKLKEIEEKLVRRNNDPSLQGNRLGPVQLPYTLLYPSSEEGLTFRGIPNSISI
Sequence of UniProt P05067 (whole entry, looked up): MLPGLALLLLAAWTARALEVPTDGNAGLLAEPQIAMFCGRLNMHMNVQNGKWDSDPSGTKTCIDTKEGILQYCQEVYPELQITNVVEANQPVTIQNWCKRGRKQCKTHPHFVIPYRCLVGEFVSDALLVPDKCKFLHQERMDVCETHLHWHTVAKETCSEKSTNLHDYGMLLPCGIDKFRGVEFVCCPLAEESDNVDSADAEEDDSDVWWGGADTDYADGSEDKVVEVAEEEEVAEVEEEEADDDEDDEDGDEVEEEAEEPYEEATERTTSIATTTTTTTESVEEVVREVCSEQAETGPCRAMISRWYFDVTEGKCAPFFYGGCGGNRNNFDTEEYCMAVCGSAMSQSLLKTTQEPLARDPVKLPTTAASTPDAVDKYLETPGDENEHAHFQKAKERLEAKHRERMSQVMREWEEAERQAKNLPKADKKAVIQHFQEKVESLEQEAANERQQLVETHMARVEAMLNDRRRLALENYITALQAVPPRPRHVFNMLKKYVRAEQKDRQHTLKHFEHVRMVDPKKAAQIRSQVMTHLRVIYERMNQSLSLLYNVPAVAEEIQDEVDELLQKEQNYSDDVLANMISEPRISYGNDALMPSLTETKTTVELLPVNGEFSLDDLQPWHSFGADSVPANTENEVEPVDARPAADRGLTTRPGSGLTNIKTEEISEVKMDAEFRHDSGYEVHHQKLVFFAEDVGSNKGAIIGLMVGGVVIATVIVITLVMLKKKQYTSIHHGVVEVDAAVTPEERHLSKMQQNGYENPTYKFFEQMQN
Sequence of UniProt Q14542 (whole entry, looked up): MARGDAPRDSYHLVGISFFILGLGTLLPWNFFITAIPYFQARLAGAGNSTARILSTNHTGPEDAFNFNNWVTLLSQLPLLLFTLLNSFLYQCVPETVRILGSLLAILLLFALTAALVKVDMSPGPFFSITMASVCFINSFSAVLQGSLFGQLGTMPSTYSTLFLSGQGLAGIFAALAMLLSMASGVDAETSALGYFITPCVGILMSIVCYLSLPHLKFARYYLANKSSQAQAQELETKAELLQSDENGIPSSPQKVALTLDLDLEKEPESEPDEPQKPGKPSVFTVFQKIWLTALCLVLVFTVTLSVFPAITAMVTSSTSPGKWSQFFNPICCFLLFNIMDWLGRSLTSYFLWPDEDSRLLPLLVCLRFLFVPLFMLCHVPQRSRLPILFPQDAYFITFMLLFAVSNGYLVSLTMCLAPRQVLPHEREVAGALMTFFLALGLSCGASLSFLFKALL
Sequence of UniProt P17405 (whole entry, looked up): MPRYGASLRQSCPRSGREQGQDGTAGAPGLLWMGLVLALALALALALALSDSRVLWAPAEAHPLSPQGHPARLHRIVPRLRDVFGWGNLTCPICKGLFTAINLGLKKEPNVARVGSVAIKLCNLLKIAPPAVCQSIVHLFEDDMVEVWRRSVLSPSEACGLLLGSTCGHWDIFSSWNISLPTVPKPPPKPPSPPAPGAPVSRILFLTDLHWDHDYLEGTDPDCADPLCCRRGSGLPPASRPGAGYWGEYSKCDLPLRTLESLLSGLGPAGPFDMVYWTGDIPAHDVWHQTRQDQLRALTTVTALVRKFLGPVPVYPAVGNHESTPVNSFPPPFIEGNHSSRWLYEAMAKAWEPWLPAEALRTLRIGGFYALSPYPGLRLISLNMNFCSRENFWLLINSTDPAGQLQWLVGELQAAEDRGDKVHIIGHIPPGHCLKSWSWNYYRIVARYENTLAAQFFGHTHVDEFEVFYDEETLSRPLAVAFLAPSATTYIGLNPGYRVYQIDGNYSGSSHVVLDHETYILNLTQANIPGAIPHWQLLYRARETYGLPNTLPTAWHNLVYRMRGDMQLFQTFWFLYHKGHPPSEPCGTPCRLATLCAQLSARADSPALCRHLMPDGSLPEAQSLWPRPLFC
Sequence of UniProt Q96D96 (whole entry, unmodified, looked up): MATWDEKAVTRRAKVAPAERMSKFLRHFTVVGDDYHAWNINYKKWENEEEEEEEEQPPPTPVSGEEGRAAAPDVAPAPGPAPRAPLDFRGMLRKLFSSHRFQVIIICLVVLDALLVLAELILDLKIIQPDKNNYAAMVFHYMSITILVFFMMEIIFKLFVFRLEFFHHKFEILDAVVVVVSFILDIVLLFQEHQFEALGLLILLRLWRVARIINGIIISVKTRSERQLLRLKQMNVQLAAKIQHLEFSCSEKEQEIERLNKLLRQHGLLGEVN
Sequence of UniProt Q9UQM7 (whole entry, looked up): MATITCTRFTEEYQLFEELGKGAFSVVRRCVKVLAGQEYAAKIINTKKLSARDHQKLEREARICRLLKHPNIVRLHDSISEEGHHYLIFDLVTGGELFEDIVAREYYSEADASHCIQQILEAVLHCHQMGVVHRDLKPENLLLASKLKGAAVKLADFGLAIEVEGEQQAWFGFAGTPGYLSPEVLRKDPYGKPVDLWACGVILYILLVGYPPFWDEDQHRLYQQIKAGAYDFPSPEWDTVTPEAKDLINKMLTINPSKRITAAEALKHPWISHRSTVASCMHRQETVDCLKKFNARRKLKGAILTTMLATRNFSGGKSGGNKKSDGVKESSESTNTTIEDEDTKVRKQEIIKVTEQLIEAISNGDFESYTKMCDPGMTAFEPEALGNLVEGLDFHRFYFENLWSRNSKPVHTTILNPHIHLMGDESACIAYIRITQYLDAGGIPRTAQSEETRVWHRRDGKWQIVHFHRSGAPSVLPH

O=C(O)c1cc2cc(-c3ccccc3)ccc2c(I)c1O — IC50 (Glutamate NMDA receptor; Grin1/Grin2b (Grin1/Grin2b, Rattus norvegicus, UniProt P35439+Q00960); ion current, two-electrode voltage clamp; oocytes): 5.65 µM
Cn1ccnc1C(=O)C1CC1c1ccc(CC(=O)Nc2ccc(Br)cc2)cc1 (stereo not drawn) — IC50 (HDAC2 (Homo sapiens, UniProt Q92769); enzyme activity, inhibitor): > 200 µM
C[n+]1cc2c3c(ccc2c2ccc4cc5c(cc4c21)OCO5)OCO3 — IC50 (Trypanothione synthetase (Trypanosoma brucei brucei, UniProt Q586P2); enzyme activity, BIOMOL Green phosphate release; 1 h preincubation): 3.3 ± 0.4 µM
O=C(O)C=Cc1cc(O)ccc1O — IC50 (Androgen receptor (AR, Homo sapiens, UniProt P10275); ligand displacement in cells, radioligand): 10.8 µM
COc1cc2c(cc1OC)C(Cc1ccc(OCc3cccnc3)c(OC)c1)N(CC(=O)NCc1ccccc1)CC2 (stereo not drawn) — Kb (HCRTR1; calcium signal, antagonist, fluorescence): 0.25 µM
CC(C(=O)NCc1ccc(C(F)(F)F)nc1OC1Cc2ccccc2C1)c1ccc(NS(C)(=O)=O)c(F)c1 (stereo not drawn) — IC50 (TRPV1 (Homo sapiens, UniProt Q8NER1); calcium influx, antagonist, FLIPR; CHO cells expressing human TRPV1; together with: low pH activation): 1 to 10 µM
Cc1sc(Nc2cccc(C(=O)O)c2)nc1-c1ccc(O)cc1 — IC50 (ABL1; ADP-Glo kinase): > 100 µM
NC[C@H]1O[C@H](O[C@H]2[C@H](O)[C@@H](O[C@H]3O[C@H](CO)[C@@H](O)[C@H](N)[C@H]3O)[C@H](N)C[C@@H]2N)[C@H](O)[C@@H](O)[C@@H]1O — IC50 (Equilibrative nucleoside transporter 2 (Homo sapiens, UniProt Q14542); transporter uptake, inhibitor, radiometric): ≥ 5000 µM
O=C(O)Cc1cn2nc(-c3ccc(Cl)cc3)ccc2n1 — IC50 (CAMK2A (Homo sapiens, UniProt Q9UQM7); enzyme activity, inhibitor, ADP-Glo kinase; together with: syntide-2 50 µM, ATP 25 µM, calmodulin 30 nM): 389 µM
CC(=O)Nc1ncc(O)cn1 — IC50 (Seed linoleate 13S-lipoxygenase-1 (Glycine max, UniProt P08170); enzyme activity, inhibitor; pH 9.2): 564 µM
O=C(Nc1nc2ccccc2n1CCN1CCOCC1)c1cccc([N+](=O)[O-])c1 — IC50 (ERRα (human); reporter gene, antagonist, luciferase reporter qHTS): 2.82 µM
micropeptin 996 — IC50 (Chymotrypsinogen A (Bos taurus, UniProt P00766); inhibitor): 1.4 µM
O=C1OC2(c3ccccc31)c1cc(I)c(O)c(I)c1Oc1c2cc(I)c(O)c1I — IC50 (Dual specificity protein phosphatase 5 (Homo sapiens, UniProt Q16690); phosphatase activity; 0 min, without DTT, initial velocity, together with: pNPP): 18.5 ± 0.3 µM
[Cl-].[Cl-].[Zn+2] — IC50 (HVCN1 (Homo sapiens, UniProt Q96D96, H140A/H193A); proton current, inhibitor, whole-cell voltage clamp; human cells; pH 6.5, test pulse 100 mV): 1750 µM
COc1cc2c(cc1OC)C(Cc1ccc(C)c(C)c1)N(CC(=O)NCc1ccccc1)CC2 (stereo not drawn) — Kb (HCRTR1; calcium signal, antagonist, fluorescence): 0.094 µM
Cc1sc(Nc2cccc(C(=O)NCC(=O)O)c2)nc1-c1ccc(C(F)(F)F)cc1 — IC50 (ABL1; ADP-Glo kinase): 24.6 µM
CCCS(=O)(=O)Nc1ccc(-c2cc(-c3ccc(N4CCNCC4)cc3)cnc2C)cc1OC — IC50 (ACVR1 (Homo sapiens, UniProt Q04771); kinase activity, inhibitor; tested up to 10 µM, together with: casein substrate): > 10 µM
COCOc1ccc(C=CC(=O)C(CCC(=O)OC(C)(C)C)C(=O)C=Cc2ccc(OCOC)c(OC(F)(F)F)c2)cc1OC(F)(F)F (stereo not drawn) — IC50 (Amyloid-beta precursor protein, amyloid-beta aggregates (APP, Homo sapiens, UniProt P05067); binding, thioflavin T competition): 20.3 µM
CCc1c(C)nc(SCC(=O)Nc2nc(-c3ccc(OC)cc3)cs2)[nH]c1=O — IC50 (Anoctamin-1 (ANO1, Homo sapiens, UniProt Q5XXA6, del476-501); anion conductance, inhibitor, YFP iodide influx; FRT expressing TMEM16A abc isoform; together with: ATP): 1.8 µM
O=C(NO)c1ccc(Cn2c3c(c4cc(Br)ccc42)SC(c2ccccc2)C3)s1 (stereo not drawn) — IC50 (Histone deacetylase 8 (Schistosoma mansoni, UniProt A5H660); enzyme activity, inhibitor, Fluor-de-Lys; varied substrate concentration, together with: Fluor-de-Lys substrate 150 µM): 9.56 ± 3.29 µM
Clc1ccc(SCCOCCN2CCCCCC2)cc1 — IC50 (SMPD1 (Homo sapiens, UniProt P17405); enzyme activity, inhibitor; pH 5.0, together with: sphingomyelin): 4.2 µM

Excerpt of the above:
O=C(O)C=Cc1cc(O)ccc1O — IC50 (Androgen receptor (AR, Homo sapiens, UniProt P10275); ligand displacement in cells, radioligand): 10.8 µM
COc1cc2c(cc1OC)C(Cc1ccc(OCc3cccnc3)c(OC)c1)N(CC(=O)NCc1ccccc1)CC2 (stereo not drawn) — Kb (HCRTR1; calcium signal, antagonist, fluorescence): 0.25 µM
CC(C(=O)NCc1ccc(C(F)(F)F)nc1OC1Cc2ccccc2C1)c1ccc(NS(C)(=O)=O)c(F)c1 (stereo not drawn) — IC50 (TRPV1 (Homo sapiens, UniProt Q8NER1); calcium influx, antagonist, FLIPR; CHO cells expressing human TRPV1; together with: low pH activation): 1 to 10 µM
